Assay results gathered from unrelated publications.
± marks the error that the study gave.
MAPK14: Mitogen-activated protein kinase 14 (MAPK14, Homo sapiens, UniProt Q16539)
Chain of UniProt Q16539 (whole entry, looked up): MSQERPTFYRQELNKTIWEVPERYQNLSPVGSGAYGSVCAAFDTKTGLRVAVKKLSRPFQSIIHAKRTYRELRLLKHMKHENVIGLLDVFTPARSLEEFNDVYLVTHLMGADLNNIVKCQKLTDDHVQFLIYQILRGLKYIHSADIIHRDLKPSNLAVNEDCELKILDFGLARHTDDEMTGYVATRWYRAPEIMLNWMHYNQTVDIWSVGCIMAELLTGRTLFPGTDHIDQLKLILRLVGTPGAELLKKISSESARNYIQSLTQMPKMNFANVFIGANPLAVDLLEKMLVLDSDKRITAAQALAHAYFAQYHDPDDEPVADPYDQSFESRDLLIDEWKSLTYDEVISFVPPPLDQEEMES
Seed linoleate 13S-lipoxygenase-1: Seed linoleate 13S-lipoxygenase-1 (Glycine max, UniProt P08170)
Chain of UniProt P08170 (whole entry, looked up): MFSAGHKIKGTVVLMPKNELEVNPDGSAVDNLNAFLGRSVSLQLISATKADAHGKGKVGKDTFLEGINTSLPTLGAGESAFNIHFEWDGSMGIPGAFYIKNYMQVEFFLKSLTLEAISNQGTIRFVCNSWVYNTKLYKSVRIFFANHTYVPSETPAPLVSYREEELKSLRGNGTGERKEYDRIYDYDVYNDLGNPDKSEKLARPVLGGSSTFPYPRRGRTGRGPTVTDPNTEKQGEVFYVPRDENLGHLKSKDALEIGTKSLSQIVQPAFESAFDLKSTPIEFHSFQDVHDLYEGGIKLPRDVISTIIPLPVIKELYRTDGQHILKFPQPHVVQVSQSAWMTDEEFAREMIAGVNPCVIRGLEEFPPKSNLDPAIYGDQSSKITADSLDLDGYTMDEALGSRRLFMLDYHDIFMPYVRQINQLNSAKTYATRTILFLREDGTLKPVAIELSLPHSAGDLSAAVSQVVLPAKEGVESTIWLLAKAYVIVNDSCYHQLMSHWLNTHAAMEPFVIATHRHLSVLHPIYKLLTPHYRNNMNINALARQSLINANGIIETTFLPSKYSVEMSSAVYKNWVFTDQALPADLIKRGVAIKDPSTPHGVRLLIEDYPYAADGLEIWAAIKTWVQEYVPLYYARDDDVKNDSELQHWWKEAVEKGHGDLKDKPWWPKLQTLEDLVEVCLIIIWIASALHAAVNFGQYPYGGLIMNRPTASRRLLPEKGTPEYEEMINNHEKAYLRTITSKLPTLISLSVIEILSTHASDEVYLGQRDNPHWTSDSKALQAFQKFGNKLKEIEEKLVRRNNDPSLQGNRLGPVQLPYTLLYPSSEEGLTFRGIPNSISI
Chain of UniProt C0HJB3 (whole entry, looked up): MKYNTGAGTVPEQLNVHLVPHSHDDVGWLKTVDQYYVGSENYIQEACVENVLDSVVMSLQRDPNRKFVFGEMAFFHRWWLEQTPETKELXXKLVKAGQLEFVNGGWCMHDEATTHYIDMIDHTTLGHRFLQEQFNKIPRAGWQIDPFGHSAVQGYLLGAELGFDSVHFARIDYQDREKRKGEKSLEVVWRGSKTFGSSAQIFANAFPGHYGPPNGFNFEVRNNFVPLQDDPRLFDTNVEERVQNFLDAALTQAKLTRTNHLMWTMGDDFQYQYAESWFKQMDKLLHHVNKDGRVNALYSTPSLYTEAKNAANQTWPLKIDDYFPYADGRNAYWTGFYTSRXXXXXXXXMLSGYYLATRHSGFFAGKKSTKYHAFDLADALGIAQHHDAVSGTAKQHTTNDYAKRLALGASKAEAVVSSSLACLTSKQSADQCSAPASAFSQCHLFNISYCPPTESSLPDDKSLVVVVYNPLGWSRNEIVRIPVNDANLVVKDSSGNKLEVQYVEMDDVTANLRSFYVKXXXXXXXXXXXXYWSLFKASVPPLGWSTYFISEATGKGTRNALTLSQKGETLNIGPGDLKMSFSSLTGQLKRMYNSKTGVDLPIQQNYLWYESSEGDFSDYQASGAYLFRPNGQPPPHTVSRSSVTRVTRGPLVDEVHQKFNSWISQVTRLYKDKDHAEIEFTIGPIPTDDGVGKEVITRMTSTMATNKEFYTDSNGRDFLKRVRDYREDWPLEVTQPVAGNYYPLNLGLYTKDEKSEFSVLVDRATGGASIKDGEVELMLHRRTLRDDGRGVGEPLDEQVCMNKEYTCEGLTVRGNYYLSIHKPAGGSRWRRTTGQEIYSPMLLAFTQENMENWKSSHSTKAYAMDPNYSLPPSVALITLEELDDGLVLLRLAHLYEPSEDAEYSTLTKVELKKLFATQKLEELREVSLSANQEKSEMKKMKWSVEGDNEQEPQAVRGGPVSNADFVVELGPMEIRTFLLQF
Chain of UniProt P33527 (whole entry, looked up): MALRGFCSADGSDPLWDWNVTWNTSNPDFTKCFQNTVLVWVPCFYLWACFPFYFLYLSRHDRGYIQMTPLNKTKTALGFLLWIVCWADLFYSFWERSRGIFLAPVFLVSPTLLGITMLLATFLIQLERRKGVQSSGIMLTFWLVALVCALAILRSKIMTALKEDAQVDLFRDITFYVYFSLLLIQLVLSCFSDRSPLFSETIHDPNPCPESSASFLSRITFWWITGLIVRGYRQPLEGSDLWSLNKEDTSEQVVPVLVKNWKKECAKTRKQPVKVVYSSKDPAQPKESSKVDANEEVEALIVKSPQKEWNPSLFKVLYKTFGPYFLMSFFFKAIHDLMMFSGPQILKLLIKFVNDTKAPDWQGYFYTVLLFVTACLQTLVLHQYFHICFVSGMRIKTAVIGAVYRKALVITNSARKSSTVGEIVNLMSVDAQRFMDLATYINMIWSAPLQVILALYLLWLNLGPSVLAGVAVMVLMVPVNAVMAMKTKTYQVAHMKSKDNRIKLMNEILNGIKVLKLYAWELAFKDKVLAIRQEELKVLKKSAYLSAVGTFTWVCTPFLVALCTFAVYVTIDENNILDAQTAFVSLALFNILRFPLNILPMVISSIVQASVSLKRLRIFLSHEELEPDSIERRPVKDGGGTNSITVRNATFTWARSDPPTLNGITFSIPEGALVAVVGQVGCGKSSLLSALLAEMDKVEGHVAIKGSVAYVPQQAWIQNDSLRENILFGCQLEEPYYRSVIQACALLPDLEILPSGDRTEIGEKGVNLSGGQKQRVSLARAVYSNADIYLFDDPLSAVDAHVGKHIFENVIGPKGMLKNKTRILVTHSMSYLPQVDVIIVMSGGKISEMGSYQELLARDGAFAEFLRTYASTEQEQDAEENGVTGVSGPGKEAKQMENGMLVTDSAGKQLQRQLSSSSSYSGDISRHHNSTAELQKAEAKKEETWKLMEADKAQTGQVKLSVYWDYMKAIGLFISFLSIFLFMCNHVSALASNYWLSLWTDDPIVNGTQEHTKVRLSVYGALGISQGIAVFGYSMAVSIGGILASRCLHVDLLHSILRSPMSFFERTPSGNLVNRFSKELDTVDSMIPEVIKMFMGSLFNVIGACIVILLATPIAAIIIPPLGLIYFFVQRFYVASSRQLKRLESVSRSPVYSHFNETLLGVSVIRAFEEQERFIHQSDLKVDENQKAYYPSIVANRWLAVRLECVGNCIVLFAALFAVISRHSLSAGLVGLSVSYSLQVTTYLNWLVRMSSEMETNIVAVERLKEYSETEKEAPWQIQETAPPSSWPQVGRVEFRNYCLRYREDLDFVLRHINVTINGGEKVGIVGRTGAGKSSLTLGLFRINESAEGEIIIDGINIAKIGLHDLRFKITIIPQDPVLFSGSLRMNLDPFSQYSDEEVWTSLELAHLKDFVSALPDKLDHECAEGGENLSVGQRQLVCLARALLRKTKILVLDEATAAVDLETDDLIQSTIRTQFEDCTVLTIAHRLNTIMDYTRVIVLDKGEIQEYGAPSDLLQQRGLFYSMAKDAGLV
Chain of UniProt P68400 (whole entry, looked up): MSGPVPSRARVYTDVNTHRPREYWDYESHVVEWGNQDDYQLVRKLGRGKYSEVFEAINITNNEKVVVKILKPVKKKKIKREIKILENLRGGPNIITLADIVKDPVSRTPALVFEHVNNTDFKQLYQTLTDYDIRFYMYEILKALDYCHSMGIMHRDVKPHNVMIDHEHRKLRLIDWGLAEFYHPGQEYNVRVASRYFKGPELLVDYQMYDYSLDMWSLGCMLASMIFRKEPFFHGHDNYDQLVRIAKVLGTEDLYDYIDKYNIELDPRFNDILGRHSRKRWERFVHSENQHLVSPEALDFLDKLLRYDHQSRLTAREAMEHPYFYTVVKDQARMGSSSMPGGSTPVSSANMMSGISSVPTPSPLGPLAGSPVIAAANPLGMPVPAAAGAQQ
Chain of UniProt P15101 (whole entry, looked up): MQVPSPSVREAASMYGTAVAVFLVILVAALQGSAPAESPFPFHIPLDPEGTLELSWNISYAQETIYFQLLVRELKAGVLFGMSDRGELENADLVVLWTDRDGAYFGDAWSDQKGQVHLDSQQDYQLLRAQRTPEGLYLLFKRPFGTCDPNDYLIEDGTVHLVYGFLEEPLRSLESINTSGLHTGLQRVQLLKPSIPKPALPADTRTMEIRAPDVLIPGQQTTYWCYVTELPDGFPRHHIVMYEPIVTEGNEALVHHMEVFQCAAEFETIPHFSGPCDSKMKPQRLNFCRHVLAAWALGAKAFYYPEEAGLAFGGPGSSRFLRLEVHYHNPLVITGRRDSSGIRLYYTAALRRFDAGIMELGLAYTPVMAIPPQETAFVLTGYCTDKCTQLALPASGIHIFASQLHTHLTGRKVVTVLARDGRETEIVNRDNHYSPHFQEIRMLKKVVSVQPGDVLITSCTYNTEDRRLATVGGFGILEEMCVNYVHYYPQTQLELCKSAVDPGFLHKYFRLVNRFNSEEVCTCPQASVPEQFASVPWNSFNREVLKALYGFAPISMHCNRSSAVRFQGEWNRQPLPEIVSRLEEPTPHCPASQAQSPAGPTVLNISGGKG
Chain of UniProt P61073 (whole entry, looked up): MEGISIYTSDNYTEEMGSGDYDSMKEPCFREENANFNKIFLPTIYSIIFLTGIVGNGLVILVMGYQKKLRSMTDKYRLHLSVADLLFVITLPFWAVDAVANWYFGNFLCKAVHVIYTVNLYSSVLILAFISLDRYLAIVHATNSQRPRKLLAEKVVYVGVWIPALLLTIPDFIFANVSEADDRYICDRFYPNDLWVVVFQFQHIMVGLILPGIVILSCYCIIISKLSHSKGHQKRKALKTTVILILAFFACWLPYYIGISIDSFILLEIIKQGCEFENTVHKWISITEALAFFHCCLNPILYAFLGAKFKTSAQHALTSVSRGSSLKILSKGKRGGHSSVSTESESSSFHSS

CC1=C2C(=O)C3CC[C@@H](C)C2(CC1)C3(C)C (stereo partly shown) — inhibition (Dipeptidyl peptidase 4 (DPP4, Sus scrofa, UniProt P22411); enzyme activity, inhibitor, absorbance; 50 µg/mL): 23.9%
[64Cu+2].c1ccc(CNCc2ccc(CN3CCCN4CCNCCCN(CC4)CC3)cc2)nc1 — tissue uptake (CXCR4; NOD/SCID mouse, U87 and U87-stb-CXCR4 xenografts, pancreas; iv, 90 min, no blocking dose, ex vivo): 1.35 ± 0.26 %ID/g
CCCCCC[N+](CCCCCC)(CCCCCC)CCCCCC — inhibition (Potassium channel subfamily K member 2 (Kcnk2, Rattus norvegicus, UniProt Q920B6); pressure-evoked current, blocker, inside-out patch clamp; Xenopus oocytes; 1 µM, with: pressure 0 to -15 mmHg): 67 ± 4.6%
C=C1C(=O)C23CCC4C(C)(C)CCCC4(C)C2C(O)CC1C3 (single isomer, unassigned) — inhibition (Peroxiredoxin-2 (PRDX2, Homo sapiens, UniProt P32119); peroxidase activity, inhibitor, Amplex Red; concentration not given): inhibited
C=CC(=O)Nc1cc(Nc2nccc(-c3cn(C)c4ccccc34)n2)c(OCC(F)(F)F)nc1N(C)CCN(C)C — activity vs control (Cytochrome P450 2C19 (CYP2C19, Homo sapiens, UniProt P33261); enzyme activity, inhibitor; human, liver microsomes; 1 µM): 109%
COc1cc(OC)c2c(c1)C(=O)c1cc3oc(=O)cc(-c4ccc(Cl)cc4)c3c(O)c1C2=O — inhibition (mushroom tyrosinase; enzyme activity; 100 µg/mL, with: L-DOPA): 51.8 ± 0.55%
O=C1NCCN=C1CC(=O)c1ccccc1 — inhibition (MAPK14; primary fragment screen; 0.25 mM, with: ATP 10 µM): 79.2%
CC(Oc1cc(-c2ccccc2)nc2ccncc12)C(=O)N(C)c1ccccc1 (stereo not shown) — Ki ratio (human leukocytes; binding; relative to: LAB over HAB genotype): 19 ± 9
O=C([O-])CN1CCN(CC(=O)[O-])CCN(CC(=O)NCCc2ccc3c(c2)C2C=CCC2C(c2cc4c(cc2Br)OCO4)N3)CCN(CC(=O)[O-])CC1.[111In+3] (stereo not shown) — tracer uptake (Hec50 tumour model; host not given, blood; 30 min, tumour-bearing): 3.94 %ID/g
COc1cc(Oc2c(O)c(Br)c(C)c(Br)c2OC)c(C(=O)O)c(C)c1O — inhibition (Gag-Pol polyprotein, reverse transcriptase (gag-pol, Human immunodeficiency virus 1, UniProt P03366); enzyme activity, inhibitor, PicoGreen fluorescence; 10 µM): 3.2 ± 0.1%
CC(Oc1cc(-c2ccccc2)nc2ncccc12)C(=O)N(C)c1ccccc1 (stereo not shown) — Ki ratio (human leukocytes; binding; relative to: LAB over HAB genotype): 5 ± 2
Cc1c2c(cc3oc(=O)cc(-c4ccc(O)cc4)c13)C(=O)c1cccc(O)c1C2=O — inhibition (mushroom tyrosinase; enzyme activity; 25 µg/mL, with: L-DOPA): 9.64 ± 0.64%
CCCC[C@H](NC(=O)CCCCCCCNC(=O)CN1CCN(CC(=O)O)CCN(CC(=O)O)CC1)C(=O)N[C@H]1CC(=O)NCCCC[C@@H](C(N)=O)NC(=O)[C@H](Cc2c[nH]c3ccccc23)NC(=O)[C@H](CCCNC(=N)N)NC(=O)[C@@H](Cc2ccccc2)NC(=O)[C@H](Cc2c[nH]cn2)NC1=O [copper-64 labelled] — tissue uptake (C57 mice, spleen; intravenous, 0.37 MBq, 4 h): 0.18 ± 0.09 %ID/g
O=C1CCCc2c1c1c(n2Cc2ccccc2)-c2ccccc2C1=O — inhibition (Casein kinase II subunit alpha, with CK2 beta subunit (CSNK2A1, Homo sapiens, UniProt P68400); 10 µM): 59%
COc1cc(/C=C/C(=O)c2ccc(Br)cc2)ccc1OCc1ccccc1 — inhibition (Multidrug resistance-associated protein 1 (ABCC1, Homo sapiens, UniProt P33527); calcein efflux, flow cytometry; 10 µM): no inhibition
O=C1c2ccccc2C(=O)c2c1ccc1c2C(C(=O)Nc2ccc(Cl)cc2)C(=O)C1c1ccccc1 (stereo not shown) — inhibition (mushroom tyrosinase; enzyme activity, inhibitor, spectrophotometry; 25 µg/mL, with: L-DOPA substrate): 20.2 ± 0.11%
CC(=O)Nc1cc(COc2c(Cl)cc(CC(N)C(=O)O)cc2Cl)c2oc(-c3ccccc3)nc2c1 (stereo not shown) — inhibition (Neutral amino acid transporter A (SLC1A4, Homo sapiens, UniProt P43007); L-alanine uptake; Xenopus oocytes; 1 and 10 µM, 30 min, with: L-[14C]alanine 50 µM): no inhibition
Oc1ccc(CCC(O)CC(O)CCc2ccc(O)cc2)cc1 (stereo not shown) — inhibition (Dopamine beta-hydroxylase (Bos taurus, UniProt P15101); enzyme activity, inhibitor; 50 µg/mL): 19.4%
[64Cu+2].c1cnc(CNCc2ccc(CN3CCCN4CCNCCCN(CC4)CC3)cc2)nc1 — tissue uptake (CXCR4; NOD/SCID mouse, U87 and U87-stb-CXCR4 xenografts, bladder; iv, 30 min, ex vivo): 3.47 ± 0.62 %ID/g
COc1ccc(CN2C[C@H](O)[C@H](O)[C@@H]2CO)cc1 — inhibition (Alpha-mannosidase (Canavalia ensiformis, UniProt C0HJB3); enzyme activity, inhibitor, absorbance; 2 mM): 4%
Cc1cc(O)c2c(c1)C(=O)c1cc3oc(=O)cc(-c4ccc(O)cc4)c3c(O)c1C2=O — inhibition (mushroom tyrosinase; enzyme activity; 25 µg/mL, with: L-DOPA): 25.3 ± 0.21%
CC(=O)N[C@H](C(=O)N[C@H](C(=O)N[C@@H](CCCNC(=N)N)C(=O)N1Cc2ccccc2C[C@H]1C(=O)N[C@@H](Cc1ccccc1)C(N)=O)C1CCCCC1)C(C)C — cytokine level (human PBMC; Bio-Plex multiplex, measured: IFN-g; 250 µg/mL, 24 h): 28 ± 18.4 pg/mL
CC(=O)OCOC(=O)CN(CC(=O)OCOC(C)=O)Cc1c(OC(C)=O)ccc2c1Oc1c(ccc(OC(C)=O)c1CN(CC(=O)OCOC(C)=O)CC(=O)OCOC(C)=O)C21OC(=O)c2ccccc21 — combination index (MDAH 2774; with: rucaparib): < 1
Oc1cc(-c2ccccc2Cl)[nH]n1 — inhibition (MAPK14; primary fragment screen; 0.25 mM, with: ATP 10 µM): 10.9%
Cc1c2c(cc3oc(=O)cc(-c4ccccc4)c13)C(=O)c1cccc(O)c1C2=O — inhibition (mushroom tyrosinase; enzyme activity; 25 µg/mL, with: L-DOPA): 52.84 ± 0.32%
CCc1noc(CN(CCN(Cc2nc(CC)no2)c2ccccc2)c2ccccc2)n1 — inhibition (C-X-C chemokine receptor type 4 (CXCR4, Homo sapiens, UniProt P61073); β-arrestin recruitment; 10 µM): > 50%
N#Cc1ccc(-c2ccc(C=NOCc3ccc4nc(-c5ccccc5)c(Nc5ccc(C(=O)O)cc5)n4c3)cc2)nc1 — inhibition (Tyrosyl-DNA phosphodiesterase 1 (TDP1, Homo sapiens, UniProt Q9NUW8); enzyme activity, inhibitor; 100 µM): 94%
COc1ccc(NC(=O)C2C(=O)C(c3ccccc3)c3ccc4c(c32)C(=O)c2ccccc2C4=O)cc1 (stereo not shown) — inhibition (mushroom tyrosinase; enzyme activity, inhibitor, spectrophotometry; 25 µg/mL, with: L-DOPA substrate): 21.2 ± 0.23%
Cc1ccccc1CN1CCN(C(=O)c2cccnc2)CC1 — inhibition (MAPK14; primary fragment screen; 0.25 mM, with: ATP 10 µM): 40.5%
Cc1cc(O)cc2c1C(=O)c1c(cc3oc(=O)cc(C)c3c1O)C2=O — inhibition (mushroom tyrosinase; enzyme activity; 100 µg/mL, with: L-DOPA): 50.6 ± 0.25%
Cc1cc(/C=C/c2ccc(O)c(O)c2)[nH]n1 — inhibition (Thioredoxin reductase 1, cytoplasmic (TXNRD1, Homo sapiens, UniProt Q16881); enzyme activity; MCF7; 25 µM, 48 h): 27%
Cc1cc(O)cc2c1C(=O)c1c(cc3oc(=O)cc(-c4ccc(Cl)cc4)c3c1O)C2=O — inhibition (mushroom tyrosinase; enzyme activity; 100 µg/mL, with: L-DOPA): 59.7 ± 0.11%
O=C(CC1(O)C(=O)Nc2cc(Cl)cc(Cl)c21)c1ccc2c(c1)OCO2 (stereo not shown) — inhibition (Uncharacterized protein (Trypanosoma brucei brucei, UniProt Q386Q8); enzyme activity, inhibitor, coupled colorimetric; Trypanosoma brucei; 100 µM): 25%
O=c1c2ccccc2ncn1-c1ccccc1F — inhibition (MAPK14; primary fragment screen; 0.25 mM, with: ATP 10 µM): 50%
CCOC(=O)c1cc2c(N)c(C(=O)OC)sc2nc1C — inhibition (Urea transporter 2 (SLC14A2, Homo sapiens, UniProt Q15849); urea transport, inhibitor; MDCK expressing SLC14A2; concentration not given, with: 10 µM forskolin): 35.4%
CCN(CC)C(=O)C(C)Sc1nnc(C2CCN(C(=O)Nc3ccccc3)CC2)n1CC (stereo not shown) — inhibition (Seed linoleate 13S-lipoxygenase-1; enzyme activity, inhibitor; 250 µM): 89.5%
COc1c2c(cc3oc(=O)cc(-c4ccccc4)c13)C(=O)c1cc(C)cc(O)c1C2=O — inhibition (mushroom tyrosinase; enzyme activity; 50 µg/mL, with: L-DOPA): 19.3 ± 0.26%
CC[C@H](C)[C@H](NC(=O)[C@@H]1CSSC[C@H](NC(=O)[C@H](Cc2ccc(O)cc2)NC(=O)CN)C(=O)N[C@@H](CO)C(=O)N[C@@H](CCCNC(=N)N)C(=O)N[C@@H](CO)C(=O)N[C@@H](Cc2ccc(O)cc2)C(=O)N2CCC[C@H]2C(=O)N2CCC[C@H]2C(=O)N[C@@H](C(C)C)C(=O)N1)C(=O)N1CCC[C@H]1C(=O)N[C@@H](CC(=O)O)C(=O)O — inhibition (Mannan-binding lectin serine protease 1 (Homo sapiens, UniProt P48740); enzyme activity, inhibitor; 15 µM, with: 10 nM MASP-1): 31%
O=C1c2ccccc2C(=O)c2c1ccc1c2C(C(=O)Nc2ccc(Br)cc2)C(=O)C1c1ccccc1 (stereo not shown) — inhibition (mushroom tyrosinase; enzyme activity, inhibitor, spectrophotometry; 25 µg/mL, with: L-DOPA substrate): 28.75 ± 0.21%
O=C(Nc1cccc(Cl)c1)c1c[nH]cn1 — inhibition (MAPK14; primary fragment screen; 0.25 mM, with: ATP 10 µM): 33.4%
Cc1cc(O)c2c(c1)C(=O)c1cc3oc(=O)cc(-c4ccc(Cl)cc4)c3c(O)c1C2=O — inhibition (mushroom tyrosinase; enzyme activity; 50 µg/mL, with: L-DOPA): 21.69 ± 0.21%
CCn1c(SC(C)C(=O)Nc2ccccc2C)nnc1C1CCN(C(=O)Nc2ccccc2)CC1 (stereo not shown) — inhibition (Seed linoleate 13S-lipoxygenase-1; enzyme activity, inhibitor; 250 µM): 85.6%
COc1cc(C(=O)NC2CCC(N3CCN(CC4CCC5(CCCC5)C4)CC3)CC2)c(F)cc1Nc1ncc2c(n1)N(C1CCCC1(F)F)CC(F)(F)C(=O)N2C (stereo not shown) — inhibition (Ephrin type-B receptor 2 (EPHB2, Homo sapiens, UniProt P29323); cell-free assay, TR-FRET; 10 µM): 0.68%

Some of these lines once more:
Cc1cc(/C=C/c2ccc(O)c(O)c2)[nH]n1 — inhibition (Thioredoxin reductase 1, cytoplasmic (TXNRD1, Homo sapiens, UniProt Q16881); enzyme activity; MCF7; 25 µM, 48 h): 27%
Cc1cc(O)cc2c1C(=O)c1c(cc3oc(=O)cc(-c4ccc(Cl)cc4)c3c1O)C2=O — inhibition (mushroom tyrosinase; enzyme activity; 100 µg/mL, with: L-DOPA): 59.7 ± 0.11%
O=C(CC1(O)C(=O)Nc2cc(Cl)cc(Cl)c21)c1ccc2c(c1)OCO2 (stereo not shown) — inhibition (Uncharacterized protein (Trypanosoma brucei brucei, UniProt Q386Q8); enzyme activity, inhibitor, coupled colorimetric; Trypanosoma brucei; 100 µM): 25%
O=c1c2ccccc2ncn1-c1ccccc1F — inhibition (MAPK14; primary fragment screen; 0.25 mM, with: ATP 10 µM): 50%
CCOC(=O)c1cc2c(N)c(C(=O)OC)sc2nc1C — inhibition (Urea transporter 2 (SLC14A2, Homo sapiens, UniProt Q15849); urea transport, inhibitor; MDCK expressing SLC14A2; concentration not given, with: 10 µM forskolin): 35.4%
CCN(CC)C(=O)C(C)Sc1nnc(C2CCN(C(=O)Nc3ccccc3)CC2)n1CC (stereo not shown) — inhibition (Seed linoleate 13S-lipoxygenase-1; enzyme activity, inhibitor; 250 µM): 89.5%
COc1c2c(cc3oc(=O)cc(-c4ccccc4)c13)C(=O)c1cc(C)cc(O)c1C2=O — inhibition (mushroom tyrosinase; enzyme activity; 50 µg/mL, with: L-DOPA): 19.3 ± 0.26%
